Experimental data collected from several papers.
Protocols differ between the studies behind these lines. Numbers after ± are the reported error. The star is where a group is joined.
Mode: substrate
CSK: Tyrosine-protein kinase CSK (CSK, Homo sapiens, UniProt P41240)
Chain of UniProt P41240 (whole entry, looked up): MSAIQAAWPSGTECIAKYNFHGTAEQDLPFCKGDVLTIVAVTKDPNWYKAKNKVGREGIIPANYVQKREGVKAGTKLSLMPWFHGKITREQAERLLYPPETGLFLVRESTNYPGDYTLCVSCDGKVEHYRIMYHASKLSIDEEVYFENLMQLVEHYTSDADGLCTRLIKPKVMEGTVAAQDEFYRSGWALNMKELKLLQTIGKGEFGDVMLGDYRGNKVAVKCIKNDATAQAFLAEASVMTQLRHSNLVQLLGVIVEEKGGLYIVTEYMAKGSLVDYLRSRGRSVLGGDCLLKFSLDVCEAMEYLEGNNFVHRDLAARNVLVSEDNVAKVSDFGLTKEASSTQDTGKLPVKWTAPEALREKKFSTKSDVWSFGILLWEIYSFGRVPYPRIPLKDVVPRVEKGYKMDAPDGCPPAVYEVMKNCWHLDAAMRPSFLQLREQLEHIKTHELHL
Chain of UniProt O60762 (whole entry, looked up): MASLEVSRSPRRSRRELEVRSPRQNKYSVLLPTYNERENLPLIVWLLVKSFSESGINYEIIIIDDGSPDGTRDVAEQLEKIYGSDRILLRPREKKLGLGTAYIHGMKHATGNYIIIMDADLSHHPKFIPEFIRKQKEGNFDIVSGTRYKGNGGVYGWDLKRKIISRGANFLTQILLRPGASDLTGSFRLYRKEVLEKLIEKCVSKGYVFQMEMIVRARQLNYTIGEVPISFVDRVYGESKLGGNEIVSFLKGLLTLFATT
Chain of UniProt P42574 (whole entry, looked up): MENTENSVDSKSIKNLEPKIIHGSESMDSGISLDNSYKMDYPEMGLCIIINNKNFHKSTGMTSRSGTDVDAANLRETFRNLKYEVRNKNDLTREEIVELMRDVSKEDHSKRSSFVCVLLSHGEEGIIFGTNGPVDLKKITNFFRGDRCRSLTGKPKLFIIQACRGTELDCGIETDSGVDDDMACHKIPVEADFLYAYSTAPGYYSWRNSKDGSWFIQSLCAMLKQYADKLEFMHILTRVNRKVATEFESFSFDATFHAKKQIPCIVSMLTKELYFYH
Chain of UniProt Q7RX33 (whole entry, looked up): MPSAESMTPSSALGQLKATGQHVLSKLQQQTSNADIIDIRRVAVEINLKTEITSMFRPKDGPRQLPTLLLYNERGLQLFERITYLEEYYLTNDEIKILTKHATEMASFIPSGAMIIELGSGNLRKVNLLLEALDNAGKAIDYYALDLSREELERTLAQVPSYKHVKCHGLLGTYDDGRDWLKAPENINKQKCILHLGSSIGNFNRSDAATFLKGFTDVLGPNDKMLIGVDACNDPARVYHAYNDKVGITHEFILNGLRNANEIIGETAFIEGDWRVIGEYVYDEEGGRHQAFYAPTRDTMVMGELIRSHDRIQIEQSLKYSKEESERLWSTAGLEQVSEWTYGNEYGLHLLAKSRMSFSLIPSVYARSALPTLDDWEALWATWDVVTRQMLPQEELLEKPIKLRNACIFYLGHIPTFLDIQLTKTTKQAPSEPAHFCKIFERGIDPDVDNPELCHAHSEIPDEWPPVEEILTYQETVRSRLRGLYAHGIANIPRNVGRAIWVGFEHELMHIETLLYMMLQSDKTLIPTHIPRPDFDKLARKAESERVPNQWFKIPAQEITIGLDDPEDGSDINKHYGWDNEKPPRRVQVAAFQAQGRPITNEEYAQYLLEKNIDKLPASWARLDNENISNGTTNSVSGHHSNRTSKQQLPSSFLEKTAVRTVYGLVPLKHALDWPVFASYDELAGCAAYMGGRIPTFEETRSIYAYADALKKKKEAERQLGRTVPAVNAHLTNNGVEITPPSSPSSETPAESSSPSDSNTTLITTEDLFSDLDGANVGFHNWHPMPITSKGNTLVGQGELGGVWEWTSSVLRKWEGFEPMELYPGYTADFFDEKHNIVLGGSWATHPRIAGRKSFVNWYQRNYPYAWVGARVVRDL
Chain of UniProt O96013 (whole entry, looked up): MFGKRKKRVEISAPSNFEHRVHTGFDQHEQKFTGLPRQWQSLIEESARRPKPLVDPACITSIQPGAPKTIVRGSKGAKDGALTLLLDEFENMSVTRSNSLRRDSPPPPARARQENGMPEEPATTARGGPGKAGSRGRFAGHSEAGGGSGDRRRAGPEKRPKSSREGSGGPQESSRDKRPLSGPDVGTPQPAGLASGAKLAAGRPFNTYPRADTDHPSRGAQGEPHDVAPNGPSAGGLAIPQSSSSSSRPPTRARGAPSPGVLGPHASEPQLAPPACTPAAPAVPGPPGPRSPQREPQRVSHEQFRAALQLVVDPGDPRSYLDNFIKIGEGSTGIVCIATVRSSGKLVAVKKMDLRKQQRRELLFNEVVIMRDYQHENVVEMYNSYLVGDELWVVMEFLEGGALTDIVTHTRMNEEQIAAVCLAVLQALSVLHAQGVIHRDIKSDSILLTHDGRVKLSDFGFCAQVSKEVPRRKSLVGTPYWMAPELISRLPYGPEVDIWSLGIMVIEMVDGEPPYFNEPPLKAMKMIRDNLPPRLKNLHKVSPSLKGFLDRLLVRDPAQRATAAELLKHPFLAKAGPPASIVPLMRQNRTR
Chain of UniProt P52026 (whole entry, looked up): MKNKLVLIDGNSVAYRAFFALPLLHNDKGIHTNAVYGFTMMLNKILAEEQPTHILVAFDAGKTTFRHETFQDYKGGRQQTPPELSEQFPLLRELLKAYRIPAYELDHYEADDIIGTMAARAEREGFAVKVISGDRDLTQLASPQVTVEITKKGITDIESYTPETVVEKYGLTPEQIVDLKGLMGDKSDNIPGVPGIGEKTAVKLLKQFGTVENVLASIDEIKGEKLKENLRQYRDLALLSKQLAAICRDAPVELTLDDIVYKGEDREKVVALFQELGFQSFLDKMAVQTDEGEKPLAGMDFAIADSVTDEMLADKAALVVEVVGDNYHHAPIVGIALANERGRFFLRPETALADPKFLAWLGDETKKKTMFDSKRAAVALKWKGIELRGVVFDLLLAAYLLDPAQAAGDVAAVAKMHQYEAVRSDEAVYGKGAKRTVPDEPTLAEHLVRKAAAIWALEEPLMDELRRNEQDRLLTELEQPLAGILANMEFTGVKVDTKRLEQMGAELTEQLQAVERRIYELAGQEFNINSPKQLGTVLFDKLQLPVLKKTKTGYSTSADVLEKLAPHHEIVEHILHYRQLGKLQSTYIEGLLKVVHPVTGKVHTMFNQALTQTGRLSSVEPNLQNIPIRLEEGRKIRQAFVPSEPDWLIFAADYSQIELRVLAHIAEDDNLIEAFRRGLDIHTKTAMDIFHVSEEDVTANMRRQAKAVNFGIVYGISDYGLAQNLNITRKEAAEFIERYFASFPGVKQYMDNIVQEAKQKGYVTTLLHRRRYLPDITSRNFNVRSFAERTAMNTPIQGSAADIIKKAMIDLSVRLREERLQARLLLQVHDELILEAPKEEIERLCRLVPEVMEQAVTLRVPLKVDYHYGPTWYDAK

Molecule | target | assay | test system | setting | Km [µM]
CSCC[C@H](N)C(=O)Oc1ccccc1 | S-adenosylmethionine synthetase (Campylobacter jejuni) |  |  | pH 7.6, ambient, with: ATP co-substrate | 1300 ± 200
O=CC=O | aldehyde oxidase F10 (Pseudomonas sp. MX-058) | peroxidase-coupled H2O2 |  | pH 7.0, 30 °C, with: O2 co-substrate | 11600
Cc1cn([C@H]2C[C@H](O)[C@@H](COP(=O)(O)OP(=O)(O)OP(=O)(O)O)O2)c(=O)[nH]c1=O | polA, large fragment (Geobacillus stearothermophilus, UniProt P52026) | primer extension |  | 3 min | 6.41
Ac-LDEVD-pNA (N-acetyl, C-pNA; pNA = O=[N+]([O-])c1ccc(N*)cc1) | Caspase-3 (CASP3, Homo sapiens, UniProt P42574) | substrate hydrolysis, colorimetric |  | pH 7.5 | 28 ± 1
YKKRLTVELT | Serine/threonine-protein kinase PAK 4 (PAK4, Homo sapiens, UniProt O96013) | kinase activity | peptide | pH 7.4, 30 °C, with: ATP 20 µM | 1100
DDEPIYIEFDAHN | CSK | enzyme-coupled | peptide | pH 7.4, room temperature, with: ATP 1 mM, MnCl2 5 mM | 190 ± 19
O=C(O)CCS | Azotobacter vinelandii MDO |  |  | 20 °C, with: O2 | 13 ± 5
CCOC(=O)[C@@H](N)CCSC | S-adenosylmethionine synthetase (Campylobacter jejuni) |  |  | pH 7.6, ambient, with: ATP co-substrate | 530 ± 40
Ac-DDEPIYAELADIT-NH2 (N-acetyl, C-amide) | CSK | enzyme-coupled | peptide | pH 7.4, room temperature, with: ATP 1 mM, MnCl2 5 mM | 120 ± 22
dolichyl phosphate | Dolichol-phosphate mannosyltransferase subunit 1, with DPM2 and DPM3 (Homo sapiens, UniProt O60762) | mannose transfer | fibroblast membrane fraction | control cells, with: GDP-[3H]mannose 5 µM | 55.6
N[C@@H](CS)C(=O)O | Ergothioneine biosynthesis protein 1 (egt-1, Neurospora crassa, UniProt Q7RX33) | enzyme activity |  |  | 603 ± 40
O=c1c(O)c(-c2ccc(O)c(O)c2)oc2cc(O)cc(O)c12 | Cu-pirin-like protein (Stutzerimonas stutzeri) | flavonol dioxygenase activity |  | pH 7.5, 25 °C, 5% DMSO | 13
CC(C)(COP(=O)(O)OP(=O)(O)OC[C@H]1O[C@@H](n2cnc3c(N)ncnc32)[C@H](O)[C@@H]1OP(=O)(O)O)[C@@H](O)C(=O)NCCC(=O)NCCSC(=O)/C=C/c1ccc(O)cc1 | 2′-hydroxylase isoform 5 Morus alba | LC-MS/MS |  | 15 min, pH 6.5 | 16.5
CC=O | aldehyde oxidase F10 (Pseudomonas sp. MX-058) | peroxidase-coupled H2O2 |  | pH 7.0, 30 °C, with: O2 co-substrate | 12300
Cc1cc(=O)oc2cc(NC(=O)[C@H](CCCCN)NC(=O)[C@H](CC(C)C)NC(=O)[C@@H](NC(=O)OC(C)(C)C)C(C)C)ccc12 | Cathepsin B (CTSB, Homo sapiens, UniProt P07858, S194A) |  |  |  | 1670

A few entries again:
Molecule | target | assay | test system | setting | Km [µM]
YKKRLTVELT | Serine/threonine-protein kinase PAK 4 (PAK4, Homo sapiens, UniProt O96013) | kinase activity | peptide | pH 7.4, 30 °C, with: ATP 20 µM | 1100
O=c1c(O)c(-c2ccc(O)c(O)c2)oc2cc(O)cc(O)c12 | Cu-pirin-like protein (Stutzerimonas stutzeri) | flavonol dioxygenase activity |  | pH 7.5, 25 °C, 5% DMSO | 13
